Assay results of several laboratories.
Protocols differ between the studies behind these lines. Numbers after ± are the reported error.
OPRK1: Kappa-type opioid receptor (OPRK1, Homo sapiens, UniProt P41145)
glf: UDP-galactopyranose mutase (glf, Mycobacterium tuberculosis, UniProt P9WIQ1)

Chains of the proteins cited; added tags and fusions are not shown. Lines headed by an entry give the natural chain unless they say otherwise; changes in a name come on top. Residues count along the entry.
UniProt P41145, whole entry: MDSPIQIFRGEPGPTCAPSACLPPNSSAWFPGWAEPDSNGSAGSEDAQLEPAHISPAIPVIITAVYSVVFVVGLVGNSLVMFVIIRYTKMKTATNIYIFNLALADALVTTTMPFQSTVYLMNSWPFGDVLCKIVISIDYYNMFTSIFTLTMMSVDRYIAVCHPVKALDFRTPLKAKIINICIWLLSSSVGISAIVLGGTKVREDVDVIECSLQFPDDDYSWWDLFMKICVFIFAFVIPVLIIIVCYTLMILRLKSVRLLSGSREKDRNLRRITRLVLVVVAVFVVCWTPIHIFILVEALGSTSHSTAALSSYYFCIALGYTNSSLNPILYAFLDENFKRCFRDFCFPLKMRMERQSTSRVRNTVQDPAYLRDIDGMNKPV
UniProt P9WIQ1, whole entry: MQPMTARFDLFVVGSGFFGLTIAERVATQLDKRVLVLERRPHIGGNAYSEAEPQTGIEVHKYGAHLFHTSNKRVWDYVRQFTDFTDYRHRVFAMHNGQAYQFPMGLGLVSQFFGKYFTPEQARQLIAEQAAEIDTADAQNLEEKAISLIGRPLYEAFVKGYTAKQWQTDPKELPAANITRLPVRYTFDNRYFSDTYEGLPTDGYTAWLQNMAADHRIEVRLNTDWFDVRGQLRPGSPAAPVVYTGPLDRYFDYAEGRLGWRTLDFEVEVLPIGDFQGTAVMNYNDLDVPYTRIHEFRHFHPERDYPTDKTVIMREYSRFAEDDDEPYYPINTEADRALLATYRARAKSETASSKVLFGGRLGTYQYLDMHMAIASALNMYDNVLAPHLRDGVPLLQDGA
UniProt P06276, whole entry, looked up: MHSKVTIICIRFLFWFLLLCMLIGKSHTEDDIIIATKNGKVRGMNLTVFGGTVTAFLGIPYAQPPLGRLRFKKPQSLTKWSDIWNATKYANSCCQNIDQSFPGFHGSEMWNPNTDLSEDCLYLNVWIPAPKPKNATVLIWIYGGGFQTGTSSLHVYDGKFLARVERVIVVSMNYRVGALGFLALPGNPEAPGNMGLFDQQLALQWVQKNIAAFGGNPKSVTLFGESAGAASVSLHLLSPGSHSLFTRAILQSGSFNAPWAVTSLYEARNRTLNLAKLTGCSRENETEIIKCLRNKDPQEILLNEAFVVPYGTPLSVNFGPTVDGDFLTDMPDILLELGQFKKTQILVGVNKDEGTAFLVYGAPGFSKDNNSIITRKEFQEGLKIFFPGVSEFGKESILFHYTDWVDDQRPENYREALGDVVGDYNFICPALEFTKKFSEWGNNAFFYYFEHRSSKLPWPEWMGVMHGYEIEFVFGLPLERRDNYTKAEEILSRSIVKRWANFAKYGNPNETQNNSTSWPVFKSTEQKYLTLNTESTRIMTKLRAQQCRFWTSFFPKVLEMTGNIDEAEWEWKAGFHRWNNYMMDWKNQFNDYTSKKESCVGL
UniProt Q9UBL9, whole entry: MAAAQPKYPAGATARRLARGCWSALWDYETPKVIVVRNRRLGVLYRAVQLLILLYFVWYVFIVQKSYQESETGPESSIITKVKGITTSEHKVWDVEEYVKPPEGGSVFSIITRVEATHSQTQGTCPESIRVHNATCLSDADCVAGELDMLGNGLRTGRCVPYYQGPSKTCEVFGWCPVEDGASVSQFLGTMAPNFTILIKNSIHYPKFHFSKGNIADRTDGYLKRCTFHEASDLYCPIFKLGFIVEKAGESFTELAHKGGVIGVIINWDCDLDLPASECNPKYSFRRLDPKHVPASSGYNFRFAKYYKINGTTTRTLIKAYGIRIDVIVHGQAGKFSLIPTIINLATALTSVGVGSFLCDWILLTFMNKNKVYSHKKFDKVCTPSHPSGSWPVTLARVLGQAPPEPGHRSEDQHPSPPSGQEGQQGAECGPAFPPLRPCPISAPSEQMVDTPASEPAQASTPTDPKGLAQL
UniProt P07949, whole entry G810R, looked up: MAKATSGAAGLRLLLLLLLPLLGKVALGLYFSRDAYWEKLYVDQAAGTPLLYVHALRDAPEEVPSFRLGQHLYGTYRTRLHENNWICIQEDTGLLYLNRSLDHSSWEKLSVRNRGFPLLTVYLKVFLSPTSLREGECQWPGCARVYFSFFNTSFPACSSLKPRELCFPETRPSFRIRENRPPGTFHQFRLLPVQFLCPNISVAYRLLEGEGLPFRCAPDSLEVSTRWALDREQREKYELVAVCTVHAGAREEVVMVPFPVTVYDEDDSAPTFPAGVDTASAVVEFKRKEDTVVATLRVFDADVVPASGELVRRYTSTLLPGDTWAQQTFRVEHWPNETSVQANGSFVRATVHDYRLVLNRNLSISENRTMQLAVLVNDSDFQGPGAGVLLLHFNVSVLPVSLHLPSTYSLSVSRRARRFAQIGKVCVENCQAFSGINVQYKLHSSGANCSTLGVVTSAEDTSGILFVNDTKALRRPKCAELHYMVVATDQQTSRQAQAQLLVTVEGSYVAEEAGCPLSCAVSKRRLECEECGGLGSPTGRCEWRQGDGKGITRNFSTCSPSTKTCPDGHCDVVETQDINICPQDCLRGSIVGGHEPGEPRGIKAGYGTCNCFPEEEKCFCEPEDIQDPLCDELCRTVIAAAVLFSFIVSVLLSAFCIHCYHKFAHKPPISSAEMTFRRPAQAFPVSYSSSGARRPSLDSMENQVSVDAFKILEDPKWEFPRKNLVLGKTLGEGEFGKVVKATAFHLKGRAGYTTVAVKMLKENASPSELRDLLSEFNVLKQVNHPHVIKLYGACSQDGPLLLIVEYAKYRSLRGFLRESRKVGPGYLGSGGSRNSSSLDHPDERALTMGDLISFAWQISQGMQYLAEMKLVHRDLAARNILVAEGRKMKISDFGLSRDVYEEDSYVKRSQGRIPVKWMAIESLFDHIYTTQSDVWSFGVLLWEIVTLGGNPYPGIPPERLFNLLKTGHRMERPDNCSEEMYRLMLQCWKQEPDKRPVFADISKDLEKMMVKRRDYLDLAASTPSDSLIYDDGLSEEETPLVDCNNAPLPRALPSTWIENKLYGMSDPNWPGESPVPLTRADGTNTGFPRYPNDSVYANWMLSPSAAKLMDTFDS
UniProt P33534, whole entry: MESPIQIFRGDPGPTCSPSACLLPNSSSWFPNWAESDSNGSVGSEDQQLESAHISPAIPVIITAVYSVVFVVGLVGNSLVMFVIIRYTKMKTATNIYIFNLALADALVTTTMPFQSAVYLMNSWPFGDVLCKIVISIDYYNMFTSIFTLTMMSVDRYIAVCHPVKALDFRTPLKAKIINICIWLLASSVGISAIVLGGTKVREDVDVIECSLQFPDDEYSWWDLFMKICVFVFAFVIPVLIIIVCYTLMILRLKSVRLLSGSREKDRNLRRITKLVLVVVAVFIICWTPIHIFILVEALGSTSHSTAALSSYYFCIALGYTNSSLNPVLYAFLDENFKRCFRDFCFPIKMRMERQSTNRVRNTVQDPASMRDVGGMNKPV
UniProt Q8T632, 1-509: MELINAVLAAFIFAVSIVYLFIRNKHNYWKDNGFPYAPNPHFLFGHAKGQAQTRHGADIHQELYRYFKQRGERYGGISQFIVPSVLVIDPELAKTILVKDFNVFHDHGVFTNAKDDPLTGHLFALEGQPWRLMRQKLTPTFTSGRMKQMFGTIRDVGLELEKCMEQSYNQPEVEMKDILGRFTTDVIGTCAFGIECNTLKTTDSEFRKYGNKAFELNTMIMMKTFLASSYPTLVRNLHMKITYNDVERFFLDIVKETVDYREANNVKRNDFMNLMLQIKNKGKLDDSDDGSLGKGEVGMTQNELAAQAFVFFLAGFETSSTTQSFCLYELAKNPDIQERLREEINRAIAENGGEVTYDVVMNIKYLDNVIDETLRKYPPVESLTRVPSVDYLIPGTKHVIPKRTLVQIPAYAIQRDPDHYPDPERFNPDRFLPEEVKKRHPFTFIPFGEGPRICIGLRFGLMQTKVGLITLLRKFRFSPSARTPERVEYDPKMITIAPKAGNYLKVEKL
UniProt Q00961, whole entry, looked up: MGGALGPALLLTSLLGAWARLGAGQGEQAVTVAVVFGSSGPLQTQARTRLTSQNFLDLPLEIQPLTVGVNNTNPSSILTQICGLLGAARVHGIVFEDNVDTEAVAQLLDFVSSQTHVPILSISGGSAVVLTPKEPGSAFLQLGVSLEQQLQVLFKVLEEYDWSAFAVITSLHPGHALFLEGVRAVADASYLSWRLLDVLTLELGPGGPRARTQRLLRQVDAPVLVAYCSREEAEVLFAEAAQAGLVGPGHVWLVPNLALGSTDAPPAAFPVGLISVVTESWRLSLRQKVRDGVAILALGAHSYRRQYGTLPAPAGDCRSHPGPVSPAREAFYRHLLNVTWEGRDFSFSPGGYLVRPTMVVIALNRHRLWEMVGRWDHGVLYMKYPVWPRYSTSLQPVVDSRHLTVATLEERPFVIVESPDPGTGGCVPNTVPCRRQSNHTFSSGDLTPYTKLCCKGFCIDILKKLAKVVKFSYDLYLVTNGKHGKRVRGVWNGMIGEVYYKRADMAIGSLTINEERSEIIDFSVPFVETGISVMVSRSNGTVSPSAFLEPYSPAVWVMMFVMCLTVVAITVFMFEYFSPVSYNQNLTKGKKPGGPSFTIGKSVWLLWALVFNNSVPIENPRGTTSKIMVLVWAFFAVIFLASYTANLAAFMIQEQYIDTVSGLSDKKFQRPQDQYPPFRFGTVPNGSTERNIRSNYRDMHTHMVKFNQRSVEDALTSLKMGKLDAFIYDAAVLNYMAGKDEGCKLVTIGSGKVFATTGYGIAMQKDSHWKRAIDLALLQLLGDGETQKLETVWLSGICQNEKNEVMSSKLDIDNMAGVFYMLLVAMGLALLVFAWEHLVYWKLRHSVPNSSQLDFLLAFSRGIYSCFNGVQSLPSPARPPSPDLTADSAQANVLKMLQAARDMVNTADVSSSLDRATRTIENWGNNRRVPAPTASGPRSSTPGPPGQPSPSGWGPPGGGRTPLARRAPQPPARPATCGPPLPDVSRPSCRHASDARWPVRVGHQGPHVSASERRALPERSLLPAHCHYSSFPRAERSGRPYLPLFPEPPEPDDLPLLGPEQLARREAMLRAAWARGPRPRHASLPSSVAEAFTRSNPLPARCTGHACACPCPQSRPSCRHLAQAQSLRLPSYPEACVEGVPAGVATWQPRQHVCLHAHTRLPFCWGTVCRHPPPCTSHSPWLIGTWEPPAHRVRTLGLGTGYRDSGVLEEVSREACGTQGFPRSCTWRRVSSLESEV
UniProt Q08J23, whole entry: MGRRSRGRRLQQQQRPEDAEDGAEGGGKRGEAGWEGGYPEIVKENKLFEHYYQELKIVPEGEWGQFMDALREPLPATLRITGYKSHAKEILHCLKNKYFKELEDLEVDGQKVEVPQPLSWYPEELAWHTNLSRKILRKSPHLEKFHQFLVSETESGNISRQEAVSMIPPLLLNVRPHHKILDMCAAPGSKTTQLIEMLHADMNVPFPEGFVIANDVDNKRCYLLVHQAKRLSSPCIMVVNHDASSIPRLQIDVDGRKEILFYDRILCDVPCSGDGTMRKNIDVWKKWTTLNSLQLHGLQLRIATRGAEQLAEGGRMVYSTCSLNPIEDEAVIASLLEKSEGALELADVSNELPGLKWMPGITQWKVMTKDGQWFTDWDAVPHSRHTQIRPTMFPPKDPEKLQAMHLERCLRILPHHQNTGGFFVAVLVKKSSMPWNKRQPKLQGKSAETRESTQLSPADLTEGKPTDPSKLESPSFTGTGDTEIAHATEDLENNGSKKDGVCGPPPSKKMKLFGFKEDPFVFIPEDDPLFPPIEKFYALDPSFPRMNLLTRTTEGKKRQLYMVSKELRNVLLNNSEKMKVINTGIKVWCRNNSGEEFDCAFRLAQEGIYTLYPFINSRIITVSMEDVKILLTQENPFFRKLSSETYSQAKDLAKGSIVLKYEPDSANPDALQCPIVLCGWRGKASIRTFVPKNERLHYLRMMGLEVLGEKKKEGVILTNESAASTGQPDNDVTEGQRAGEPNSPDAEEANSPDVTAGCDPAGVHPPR
UniProt Q9BQI3, whole entry: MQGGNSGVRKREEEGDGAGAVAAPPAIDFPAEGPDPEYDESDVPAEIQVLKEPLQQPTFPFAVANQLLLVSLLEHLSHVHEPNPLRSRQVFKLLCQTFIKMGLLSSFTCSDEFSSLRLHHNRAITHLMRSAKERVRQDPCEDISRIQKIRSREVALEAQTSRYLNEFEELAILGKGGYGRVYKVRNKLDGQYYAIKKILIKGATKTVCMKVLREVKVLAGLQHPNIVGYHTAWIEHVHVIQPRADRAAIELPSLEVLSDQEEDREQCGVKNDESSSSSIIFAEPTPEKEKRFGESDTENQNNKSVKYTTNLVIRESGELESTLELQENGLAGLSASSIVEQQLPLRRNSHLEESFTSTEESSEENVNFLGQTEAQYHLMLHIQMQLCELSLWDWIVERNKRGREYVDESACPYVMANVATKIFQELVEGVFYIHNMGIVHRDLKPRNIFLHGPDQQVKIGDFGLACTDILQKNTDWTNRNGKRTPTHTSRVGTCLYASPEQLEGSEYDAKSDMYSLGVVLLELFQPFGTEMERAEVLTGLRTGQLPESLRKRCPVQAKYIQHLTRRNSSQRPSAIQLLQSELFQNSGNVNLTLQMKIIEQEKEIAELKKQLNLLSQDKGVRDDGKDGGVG

ethoxymethyl salvinorin B
Emax (OPRK1; agonist; baseline: U-50488 10 µM): 108 ± 3.4%

CCN(CC)c1ccc2c(O)c(C=Nc3ccc(CC(=O)NNc4c5c(nc6ccccc46)CCCC5)cc3)c(=O)oc2c1
efficacy (Cholinesterase (BCHE, Homo sapiens, UniProt P06276); enzyme activity, fluorescence): -100 ± 18.3%

CCN(CC)C(=O)Oc1ccc(C(=O)Nc2cccc3cc[nH]c23)cc1
current response (P2X purinoceptor 2 (P2RX2, Homo sapiens, UniProt Q9UBL9); modulator, two-electrode voltage clamp; Xenopus oocytes; 20 µM, with: 9 µM ATP; baseline: agonist alone): 93.1 ± 1.6%

Cc1ccc(C(=O)Nc2ccc(CN3CCN(C)CC3)c(C(F)(F)F)c2)cc1C#Cc1cnc2cccnn12
inhibition (Proto-oncogene tyrosine-protein kinase receptor Ret, KIF5B-RET fusion (RET, Homo sapiens, UniProt P07949, G810R); inhibitor; 0.02 µM, cell-based): < 25%

CN(C(=O)Cc1ccc(Cl)c(Cl)c1)[C@H](CN1CCCC1)c1ccccc1
Emax (Kappa-type opioid receptor (Oprk1, Mus musculus, UniProt P33534); receptor internalization, agonist, on-cell western; mouse receptor; baseline: control): 47.2 ± 1.5%

CC#C/C(=N\OC[C@H]1COCCN1)c1ccc2ncnc(Nc3ccc(OCc4cccc(F)c4)c(Cl)c3)c2c1
inhibition (Tyrosine-protein kinase Fer (FER, Homo sapiens, UniProt P16591); kinase activity; 10 µM): 17.5%

CCOc1ccc2c(c1)Oc1cc(OCC)ccc1C21OC(=O)c2ccccc21
Vmax (cyp6p3 (Anopheles gambiae, UniProt Q8T632); substrate; single plasmid expression): 54.4 ± 6.52 RFU/s

Cc1ccc(S(=O)(=O)N(C)CC(=O)N(Cc2ccc(C3CCCCC3)cc2)c2ccc(C(=O)O)c(O)c2)cc1
DNA-binding activity (Signal transducer and activator of transcription 1, homodimer (Mus musculus, UniProt P42225); EMSA, refers to: hSIE probe; NIH3T3/hEGFR nuclear extracts; 200 µM, with: EGF): inhibited

COc1ccc(S(=O)(=O)NC(=O)C(Cc2ccc(I)cc2)Nc2nc(-c3ccc(Cl)c(Cl)c3)cs2)cc1 (centres unmarked)
IC50 ratio (glf; enzyme activity, inhibitor; baseline: compound over reference carboxylate): 2 to 3 fold

COc1ccc(OC[C@H]2c3cccn3CC(=O)N2Cc2cccc(F)c2)cc1
charge transfer (Glutamate receptor ionotropic, NMDA 2C, with GluN1 (Rattus norvegicus, UniProt Q00961); ion current, whole-cell patch clamp; HEK293T cells, transfected; 10 µM, with: 1 mM glutamate for 10 ms plus 100 µM glycine): -9.9 ± 10 nA·ms

O=C(NS(=O)(=O)C(F)(F)F)C(Cc1ccc(I)cc1)Nc1nc(-c2ccc(Cl)c(Cl)c2)cs1 (centres unmarked)
IC50 ratio (glf; enzyme activity, inhibitor; baseline: compound over reference carboxylate): 2 to 3 fold

CN(C(=O)Cc1cccc2occc12)[C@H]1CC[C@@]2(CCCO2)C[C@@H]1N1CCCC1
log intrinsic relative activity (OPRK1; receptor internalization, agonist; concentration not given; baseline: dynorphin A): 0.67 ± 0.14

C=CC(=O)N1C[C@H](c2ccc(Br)cc2)[C@@H]1C(=O)Nc1cccc2cccnc12
maximal inhibition (RNA cytosine C(5)-methyltransferase NSUN2 (NSUN2, Homo sapiens, UniProt Q08J23); methyltransferase activity; highest concentrations tested): ~80%

methoxymethyl salvinorin B
Emax (OPRK1; receptor internalization, agonist, on-cell western; human receptor; baseline: control): 52.2 ± 1.7%

Cc1ccc2nc(-c3ccc4nc(-c5ccc(NC(=O)c6ccc7nc(-c8ccc(N)cc8)sc7c6)cc5)sc4c3)sc2c1S(=O)(=O)O
DNA bound (MBHA DNA substrate; SYBR Green I displacement; 100 µM): 59 ± 4%

U-69593
Emax (OPRK1; G protein activation, agonist; CHO-hKOR cell membranes; baseline: reference agonist): 100%

CCN1CCN(Cc2ccc(NC(=O)c3ccc(C)c(/C=C/c4cnc5[nH]ccc5c4OC)c3)cc2C(F)(F)F)CC1
log2 fold change (Eukaryotic translation initiation factor 2-alpha kinase 1, with CDC37 (EIF2AK1, Homo sapiens, UniProt Q9BQI3); inhibitor, cell-based kinome screen; human cells; 5 µM; baseline: vehicle): 0.195

A few entries again:
CN(C(=O)Cc1cccc2occc12)[C@H]1CC[C@@]2(CCCO2)C[C@@H]1N1CCCC1
log intrinsic relative activity (OPRK1; receptor internalization, agonist; concentration not given; baseline: dynorphin A): 0.67 ± 0.14

C=CC(=O)N1C[C@H](c2ccc(Br)cc2)[C@@H]1C(=O)Nc1cccc2cccnc12
maximal inhibition (RNA cytosine C(5)-methyltransferase NSUN2 (NSUN2, Homo sapiens, UniProt Q08J23); methyltransferase activity; highest concentrations tested): ~80%
